{"data": "Experimental data pooled from the literature", "note": "Protocols differ between the studies behind these lines. Several values in a cell are separate wells, animals, samples, runs or records. Numbers after ± are the reported error.", "UniProt Q00987, sequence (whole entry, looked up)": "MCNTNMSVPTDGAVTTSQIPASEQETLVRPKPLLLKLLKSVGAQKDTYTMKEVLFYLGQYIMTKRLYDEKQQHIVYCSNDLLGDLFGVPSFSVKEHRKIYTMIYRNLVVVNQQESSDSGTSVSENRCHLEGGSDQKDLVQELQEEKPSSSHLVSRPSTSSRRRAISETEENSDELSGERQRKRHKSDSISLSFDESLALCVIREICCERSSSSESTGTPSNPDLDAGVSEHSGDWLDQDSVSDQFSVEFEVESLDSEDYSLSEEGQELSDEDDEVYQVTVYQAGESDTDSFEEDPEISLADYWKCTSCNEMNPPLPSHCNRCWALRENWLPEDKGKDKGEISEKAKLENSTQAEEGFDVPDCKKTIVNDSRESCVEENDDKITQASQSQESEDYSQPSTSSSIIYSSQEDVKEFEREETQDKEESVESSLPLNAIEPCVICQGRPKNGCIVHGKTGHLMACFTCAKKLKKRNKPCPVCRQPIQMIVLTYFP", "UniProt Q9UNU6, sequence (whole entry, looked up)": "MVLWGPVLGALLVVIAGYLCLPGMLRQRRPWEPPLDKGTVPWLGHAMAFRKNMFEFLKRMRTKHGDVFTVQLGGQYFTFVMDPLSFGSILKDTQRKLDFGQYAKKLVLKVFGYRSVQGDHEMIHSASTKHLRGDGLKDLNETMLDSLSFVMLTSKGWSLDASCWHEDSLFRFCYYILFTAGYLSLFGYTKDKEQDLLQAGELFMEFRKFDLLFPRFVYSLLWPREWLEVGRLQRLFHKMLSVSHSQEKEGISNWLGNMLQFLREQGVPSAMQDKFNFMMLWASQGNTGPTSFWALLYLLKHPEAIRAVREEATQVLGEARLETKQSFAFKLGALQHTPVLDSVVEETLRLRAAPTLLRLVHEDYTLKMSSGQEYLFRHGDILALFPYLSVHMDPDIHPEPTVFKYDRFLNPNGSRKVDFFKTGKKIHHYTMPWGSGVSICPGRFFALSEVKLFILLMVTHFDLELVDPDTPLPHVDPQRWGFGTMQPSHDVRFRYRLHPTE", "UniProt O14965, sequence (whole entry, looked up)": "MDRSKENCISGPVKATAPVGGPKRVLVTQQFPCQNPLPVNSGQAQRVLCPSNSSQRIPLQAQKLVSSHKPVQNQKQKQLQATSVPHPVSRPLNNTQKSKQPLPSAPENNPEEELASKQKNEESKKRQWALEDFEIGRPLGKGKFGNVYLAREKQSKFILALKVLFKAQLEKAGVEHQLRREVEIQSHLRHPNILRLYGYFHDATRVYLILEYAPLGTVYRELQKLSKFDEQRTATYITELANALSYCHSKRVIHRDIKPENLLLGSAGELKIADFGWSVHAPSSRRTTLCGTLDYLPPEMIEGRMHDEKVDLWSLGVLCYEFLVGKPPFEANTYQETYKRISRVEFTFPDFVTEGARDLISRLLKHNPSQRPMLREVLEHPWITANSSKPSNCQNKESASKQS", "UniProt P49674, sequence (whole entry, looked up)": "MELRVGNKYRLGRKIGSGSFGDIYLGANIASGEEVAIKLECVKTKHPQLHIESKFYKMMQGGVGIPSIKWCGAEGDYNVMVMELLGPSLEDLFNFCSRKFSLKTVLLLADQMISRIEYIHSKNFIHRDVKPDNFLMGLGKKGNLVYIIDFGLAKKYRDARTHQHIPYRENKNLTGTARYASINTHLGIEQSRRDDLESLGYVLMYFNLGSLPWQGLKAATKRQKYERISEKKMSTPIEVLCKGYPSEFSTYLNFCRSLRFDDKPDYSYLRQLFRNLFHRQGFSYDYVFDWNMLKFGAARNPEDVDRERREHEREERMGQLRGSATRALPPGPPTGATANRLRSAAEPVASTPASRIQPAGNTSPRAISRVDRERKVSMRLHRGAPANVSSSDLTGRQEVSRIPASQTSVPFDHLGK", "UniProt Q9UHD2, sequence (whole entry, looked up)": "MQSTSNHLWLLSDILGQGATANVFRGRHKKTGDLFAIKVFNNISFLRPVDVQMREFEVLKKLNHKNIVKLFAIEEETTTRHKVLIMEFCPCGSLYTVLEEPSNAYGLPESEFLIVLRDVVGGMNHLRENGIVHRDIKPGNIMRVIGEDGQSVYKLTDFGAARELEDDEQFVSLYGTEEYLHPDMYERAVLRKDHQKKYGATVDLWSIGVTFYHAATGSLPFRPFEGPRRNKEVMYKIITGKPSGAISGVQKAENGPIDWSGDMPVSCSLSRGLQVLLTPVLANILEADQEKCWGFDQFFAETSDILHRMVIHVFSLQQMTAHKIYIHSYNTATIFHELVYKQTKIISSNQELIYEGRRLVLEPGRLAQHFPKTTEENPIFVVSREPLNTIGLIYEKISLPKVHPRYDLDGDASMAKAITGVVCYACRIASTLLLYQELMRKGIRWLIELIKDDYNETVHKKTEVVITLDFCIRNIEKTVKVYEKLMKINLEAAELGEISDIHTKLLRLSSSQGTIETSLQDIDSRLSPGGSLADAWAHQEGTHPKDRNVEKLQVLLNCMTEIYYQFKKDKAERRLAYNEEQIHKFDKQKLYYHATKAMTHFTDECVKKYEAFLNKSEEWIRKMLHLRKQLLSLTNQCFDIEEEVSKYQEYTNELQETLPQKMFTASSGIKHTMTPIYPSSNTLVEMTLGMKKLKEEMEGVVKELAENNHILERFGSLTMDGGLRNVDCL", "UniProt Q9NWZ3, sequence (whole entry, looked up)": "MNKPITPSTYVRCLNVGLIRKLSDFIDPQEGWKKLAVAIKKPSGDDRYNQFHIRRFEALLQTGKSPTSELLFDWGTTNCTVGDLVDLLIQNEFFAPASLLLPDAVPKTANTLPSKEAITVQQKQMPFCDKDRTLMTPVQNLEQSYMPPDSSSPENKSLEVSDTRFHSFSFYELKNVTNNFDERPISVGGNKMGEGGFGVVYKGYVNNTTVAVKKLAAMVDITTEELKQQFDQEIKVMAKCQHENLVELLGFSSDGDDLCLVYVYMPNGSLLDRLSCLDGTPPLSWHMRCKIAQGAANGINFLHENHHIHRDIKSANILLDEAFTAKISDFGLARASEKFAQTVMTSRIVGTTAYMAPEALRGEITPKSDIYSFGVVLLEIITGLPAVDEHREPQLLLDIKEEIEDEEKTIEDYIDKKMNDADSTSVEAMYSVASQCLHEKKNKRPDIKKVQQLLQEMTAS", "UniProt P11544, sequence (whole entry, looked up)": "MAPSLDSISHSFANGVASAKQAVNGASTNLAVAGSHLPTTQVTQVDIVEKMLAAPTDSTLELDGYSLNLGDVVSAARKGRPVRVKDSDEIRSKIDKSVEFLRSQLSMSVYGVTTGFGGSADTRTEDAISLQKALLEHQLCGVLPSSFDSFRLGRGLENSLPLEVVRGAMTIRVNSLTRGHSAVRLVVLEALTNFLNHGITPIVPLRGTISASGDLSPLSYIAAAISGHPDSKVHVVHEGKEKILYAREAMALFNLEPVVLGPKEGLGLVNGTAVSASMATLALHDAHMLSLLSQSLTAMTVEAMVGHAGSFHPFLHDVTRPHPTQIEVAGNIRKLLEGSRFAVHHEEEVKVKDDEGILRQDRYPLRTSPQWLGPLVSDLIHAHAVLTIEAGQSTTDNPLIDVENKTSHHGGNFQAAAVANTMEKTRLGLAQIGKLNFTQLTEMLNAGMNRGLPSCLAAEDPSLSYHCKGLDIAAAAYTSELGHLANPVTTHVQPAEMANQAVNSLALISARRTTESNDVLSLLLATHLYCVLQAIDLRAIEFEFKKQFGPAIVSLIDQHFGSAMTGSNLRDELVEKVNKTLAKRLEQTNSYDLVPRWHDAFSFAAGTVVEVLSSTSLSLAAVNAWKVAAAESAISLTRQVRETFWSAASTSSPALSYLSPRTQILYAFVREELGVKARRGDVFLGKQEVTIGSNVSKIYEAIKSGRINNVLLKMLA", "UniProt P16591, sequence (whole entry, looked up)": "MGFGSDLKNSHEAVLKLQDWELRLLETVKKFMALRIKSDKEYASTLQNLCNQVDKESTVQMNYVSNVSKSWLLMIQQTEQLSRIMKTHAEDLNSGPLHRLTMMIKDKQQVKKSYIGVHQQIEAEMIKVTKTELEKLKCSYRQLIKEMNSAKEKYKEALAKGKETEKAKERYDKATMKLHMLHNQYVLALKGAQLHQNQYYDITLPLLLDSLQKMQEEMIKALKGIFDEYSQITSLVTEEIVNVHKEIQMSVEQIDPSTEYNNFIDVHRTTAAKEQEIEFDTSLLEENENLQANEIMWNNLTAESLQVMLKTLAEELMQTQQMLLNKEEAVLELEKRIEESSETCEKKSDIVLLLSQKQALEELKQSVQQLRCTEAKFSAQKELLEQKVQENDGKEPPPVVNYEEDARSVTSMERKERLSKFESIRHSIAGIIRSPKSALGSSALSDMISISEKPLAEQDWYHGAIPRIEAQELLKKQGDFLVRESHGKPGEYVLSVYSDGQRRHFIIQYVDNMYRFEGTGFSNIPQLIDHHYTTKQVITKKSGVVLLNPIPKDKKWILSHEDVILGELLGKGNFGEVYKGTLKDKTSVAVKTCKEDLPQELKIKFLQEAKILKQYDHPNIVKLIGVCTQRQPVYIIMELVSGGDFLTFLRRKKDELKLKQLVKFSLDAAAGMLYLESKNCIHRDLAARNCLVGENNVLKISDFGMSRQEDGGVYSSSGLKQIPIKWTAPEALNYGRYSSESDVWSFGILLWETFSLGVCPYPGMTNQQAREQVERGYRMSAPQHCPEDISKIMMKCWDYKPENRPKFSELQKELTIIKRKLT", "UniProt P33533, sequence (whole entry, looked up)": "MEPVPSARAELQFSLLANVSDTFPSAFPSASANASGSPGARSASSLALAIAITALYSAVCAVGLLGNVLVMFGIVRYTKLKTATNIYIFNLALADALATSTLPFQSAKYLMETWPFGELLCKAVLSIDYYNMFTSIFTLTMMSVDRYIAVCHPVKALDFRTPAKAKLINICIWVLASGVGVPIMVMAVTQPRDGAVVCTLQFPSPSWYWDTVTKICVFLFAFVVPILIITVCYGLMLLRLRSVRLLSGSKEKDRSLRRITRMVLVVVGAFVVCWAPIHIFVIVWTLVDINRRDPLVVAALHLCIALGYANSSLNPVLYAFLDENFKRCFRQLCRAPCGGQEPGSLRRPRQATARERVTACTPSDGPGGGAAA"}
{"SMILES": "CN(C)[C@H]1C[C@@]23CC[C@@]4(O2)C(=CC[C@]2(C)[C@@H](c5ccc6ccncc6c5)CC[C@H]24)C=C3[C@@H](O)[C@@H]1O", "target or system": "TBK1 (Homo sapiens, UniProt Q9UHD2)", "assay": "ATP probe labelling, inhibitor, KiNativ profiling", "conditions": "0.1 µM", "endpoint": "inhibition", "result": "-6.9%"}
{"SMILES": "O=C(O)c1ccccc1/C=N/Nc1nc(-c2ccccc2Cl)cs1", "target or system": "CSNK1E (Homo sapiens, UniProt P49674)", "assay": "kinase activity", "conditions": "1 µM", "endpoint": "inhibition", "result": "10.1%"}
{"SMILES": "C=C(c1ccccc1)[C@H](N)P(=O)(O)O", "target or system": "Phenylalanine/tyrosine ammonia-lyase (PAL, Rhodotorula toruloides, UniProt P11544)", "assay": "inhibitor", "conditions": "50 µM, together with: L-Phe 5 mM", "endpoint": "reaction rate reduction", "result": "53%"}
{"SMILES": "O=C1NC(=O)c2c1c1cc(F)c[n+]3c1c1c2c2cc(O)ccc2[n]1[Ru-4]312([N]=C=S)[S+]3CC[S+]1CC[S+]2CC3 (stereo not shown)", "target or system": "IRAK4 (Homo sapiens, UniProt Q9NWZ3)", "assay": "enzyme activity", "conditions": "100 nM, human enzyme, together with: 10 µM ATP", "scale": "relative to: untreated", "endpoint": "remaining activity", "result": "94%"}
{"SMILES": "C[C@]12C(c3cccnc3)=C[C@H]3[C@@H](CCC4=C[C@H](O)CC[C@@]43C)[C@@H]1CC[C@@H]2O", "target or system": "7-alpha-hydroxycholest-4-en-3-one 12-alpha-hydroxylase (Homo sapiens, UniProt Q9UNU6)", "assay": "inhibitor", "conditions": "80 µM, together with: 7α-hydroxycholest-4-en-3-one 0.5 µM", "endpoint": "remaining activity", "result": "66.1 ± 1.1%"}
{"SMILES": "Cc1cc(Nc2nc(C[C@@]3(C(=O)O)CCN(Cc4cccc(Cl)c4F)[C@H](C)C3)cc(C)c2F)[nH]n1", "target or system": "CHRM2 (Homo sapiens, UniProt P08172)", "assay": "agonist", "conditions": "10 µM", "endpoint": "activation", "result": "-0.14%"}
{"SMILES": "CC[C@@H](C)[C@@H]1CN([C@H](Cc2ccc3ccccc3c2)CN2CCC[C@H]2CN2CCNC[C@@H]2CO)CCN1CCCC1CCCC1", "target or system": "Oprd1 (Rattus norvegicus, UniProt P33533)", "assay": "radioligand binding", "system": "rat brain membranes", "conditions": "500 nM, pH 7.5, 25 °C, together with: 2 nM [3H]DPDPE", "endpoint": "remaining binding", "result": "88.9%"}
{"SMILES": "O=C1NC2(CC2)COc2ncc(F)cc2[C@H]2COCCN2c2ccn3ncc1c3n2", "system": "Sprague-Dawley rat, female, thymus", "conditions": "oral, 5 mg/kg/day, 4 weeks, end of treatment", "endpoint": "organ-to-body weight ratio", "result": "0.169 ± 0.04%"}
{"SMILES": "CC(C)[C@H]1NC(=O)C[C@H]2/C=C/CCSSC[C@@H](NC1=O)C(=O)N[C@H](Cc1cccc3ccccc13)C(=O)NCC(=O)O2", "target or system": "Aurora kinase A (AURKA, Homo sapiens, UniProt O14965)", "assay": "enzyme activity, inhibitor", "conditions": "10 µM", "endpoint": "inhibition", "result": "-13.1%"}
{"SMILES": "Cc1ncc([N+](=O)[O-])n1CC(O)Cn1cc(CO[C@]2(C(=O)O)C[C@H](O)[C@@H](NC(=O)CF)[C@H]([C@H](O)[C@H](O)CNC(=O)c3ccc(Oc4ccccc4)cc3)O2)nn1 (stereo partly shown)", "target or system": "CD22 (Homo sapiens, UniProt P20273)", "assay": "isothermal titration calorimetry", "conditions": "concentration not given", "endpoint": "binding stoichiometry", "result": "1.48 ± 0.01"}
{"SMILES": "CS(C)(=O)=Nc1ccc(-c2ccc(-c3nc4cc(O[C@@H]5CO[C@H]6[C@@H]5OC[C@H]6O)[nH]c4cc3F)cc2)cc1", "target or system": "FER (Homo sapiens, UniProt P16591)", "assay": "enzyme activity, inhibitor", "conditions": "10 µM", "endpoint": "inhibition", "result": "-16%"}
{"SMILES": "CC[C@H](C)[C@@H]1NC(=O)[C@H](CC(C)C)NC(=O)CNC(=O)[C@H](CCCNC(=N)N)NC(=O)[C@H](Cc2c[nH]c3ccccc23)NC(=O)[C@H](CCSC)NC(=O)[C@H](CO)NC(=O)[C@H](CCC(=O)O)NC(=O)[C@H](Cc2ccccc2)NC(=O)[C@H](CC(=O)O)NC(=O)[C@H]([C@@H](C)O)NC(=O)CNC(=O)[C@H](CCC(=O)O)NC(=O)[C@H]([C@@H](C)O)NC(=O)CNC(=O)[C@H](CC(=O)O)NC1=O", "target or system": "MDM2 (Homo sapiens, UniProt Q00987)", "assay": "MDM2-ligand binding, inhibitor, AlphaLISA competition", "conditions": "1.562 µM, together with: GST-tagged MDM2 ligand", "scale": "lower = stronger inhibition", "endpoint": "AlphaLISA signal", "result": "3520 a.u. and 3130 a.u. and 3410 a.u."}
{"SMILES": "CC(C)C[C@@H](N)C(=O)NCC(=O)N[C@H](C)C(=O)N[C@H](CO)C(=O)N[C@H](Cc1c[nH]c2ccccc12)C(=O)N[C@H](Cc1c[nH]cn1)C(=O)N[C@H](CCCNC(=N)N)C(=O)N1CCC[C@@H]1C(=O)N[C@H](CC(=O)O)C(=O)N[C@H](CCCCN)C(=O)N[C@H](CCCCN)C(=O)N[C@H](CCCNC(=N)N)C(=O)NCCCCCC(=O)N[C@@H](CCCCN)C(=O)N[C@@H](CCCNC(=N)N)C(=O)N[C@@H](CCCCN)C(=O)N[C@@H](CCC(N)=O)C(=O)N[C@@H](CCCNC(=N)N)C(=O)NCC(=O)N1CCC[C@H]1C(=O)NCC(=O)N[C@@H](CCCNC(=N)N)C(=O)N[C@@H](C)C(=O)N[C@@H](Cc1ccccc1)C(N)=O", "target or system": "CCR5 (Homo sapiens, UniProt P51681)", "system": "CHO expressing CCR5", "conditions": "50 µM, 40 min, 4 °C, together with: mAb 45523 4 µg/mL", "endpoint": "inhibition of binding", "result": "17.2%"}
{"note": "Some of these lines once more:"}
{"SMILES": "Cc1ncc([N+](=O)[O-])n1CC(O)Cn1cc(CO[C@]2(C(=O)O)C[C@H](O)[C@@H](NC(=O)CF)[C@H]([C@H](O)[C@H](O)CNC(=O)c3ccc(Oc4ccccc4)cc3)O2)nn1 (stereo partly shown)", "target or system": "CD22 (Homo sapiens, UniProt P20273)", "assay": "isothermal titration calorimetry", "conditions": "concentration not given", "endpoint": "binding stoichiometry", "result": "1.48 ± 0.01"}
{"SMILES": "CS(C)(=O)=Nc1ccc(-c2ccc(-c3nc4cc(O[C@@H]5CO[C@H]6[C@@H]5OC[C@H]6O)[nH]c4cc3F)cc2)cc1", "target or system": "FER (Homo sapiens, UniProt P16591)", "assay": "enzyme activity, inhibitor", "conditions": "10 µM", "endpoint": "inhibition", "result": "-16%"}
